Measurements from different studies.
Parts stem from different laboratories: compare values within a part only. Substitutions count along the parent as printed.

Block 1
Target: Fragile X messenger ribonucleoprotein 1, C-terminal low-complexity region (Fmr1, Mus musculus, UniProt P35922)
Technique: RNA Bind-n-Seq
Molecule type: RNA
Matrix: in vitro
Tested at: 200 nM
Setting: whole 134-nt RNA, ends assumed
With: 150 mM LiCl
Reference: input library
Direction: higher = stronger binding
Library: 7-deaza-guanosine replaces G
Constant ends, left off below: GGGAGUUCUACAGUCCGACGAUC … UGGAAUUCUCGGGUGUCAAGG
Strand	log2 enrichment
UAGUCCAGCAUCAAGAUUCGCCGGCCUGGAUACAAAUCAGCGACUUACAGCUUUAGCUGAAGACAGACCGUUAUUUGAUGGACCUAGUAG	-2.95
AAGUCCUGUGCUACACAUCGUAUGUACCGAAUCGGGAAAAAGGGAAAAAGGGUGGGAAAGUAUUAUGUUACGCCGUUCGGAUCUGCACUU	-1.04
AGAUGAACAAGAGAACUGGGCAACCCAUGAUCCACAUCUACCUGGACAAGGAAACAGGAAAGCCCAAAGGCGAUGCCACAGUGUCCUAUG	-1.12
ACCAUGCAGGUGGGCAUCUUUGGGAAGUGGGGCAAGGGGGGGAUAGGGAGGGGGGUAACACUUAAAGAACAGGUGGUCCCAGGUCGUUUC	1.36
CAAGUCCUGUGCUACACAUCGUAUGUACCGAAUCGGGUUUGGGAGGGUUUUUGGGAAAGUAUUAUGUUACGCCGUUCGGAUCUGCACUUC	-0.408
ACCAUGCAGGUGGGCAUAAAUGGGAAGUGGGGCAAGGGGGGGAUAGGGAGGGGGGUAACACUUUGGGAACAGGUGGUCCCAGGUCGUUUC	1.32
UGGCCCUGGUGGCAUGCGGGGAGGAAGAGGUGGCCUCAUGGAUCGUGGUGGUCCCGGUGGAAUGUUCAGAGGGGGCCGUGGUGGAGACAG	-0.908
CAAGUCCUGUGCUACACAUCGUAUGUACCGAAUCGGUUUUGGUUUUGGUUUUGGGGAAAGUAUUAUGUUACGCCGUUCGGAUCUGCACUU	-1.64
CUCAAGUCCUGUGCUACACAUCGUAUGUACCGAAUCGGGUUUGGUUUGGUUUGGAAAGUAUUAUGUUACGCCGUUCGGAUCUGCACUUCC	-0.474
UCCUGUGCUACACAUCGUAUGUACCGAAUCGGCCCCCCGGGCCCCCCGGGGCCCCCCGGAAAGUAUUAUGUUACGCCGUUCGGAUCUGCA	-0.26
GCAGGAAGUAAAAACAAAUGGAAAUGCUUCGGAUAGUGGCAGGGGUGGGGGUUGCUAAGGAUAGGGUGGGAUGGGAGUGGGUAAAGAGUU	1.06

Block 2
Target: Centromere-binding protein 1, full length, His-tagged (CBF1, Saccharomyces cerevisiae, UniProt P17106, residues 1-351)
Chain of UniProt P17106 (whole entry, looked up): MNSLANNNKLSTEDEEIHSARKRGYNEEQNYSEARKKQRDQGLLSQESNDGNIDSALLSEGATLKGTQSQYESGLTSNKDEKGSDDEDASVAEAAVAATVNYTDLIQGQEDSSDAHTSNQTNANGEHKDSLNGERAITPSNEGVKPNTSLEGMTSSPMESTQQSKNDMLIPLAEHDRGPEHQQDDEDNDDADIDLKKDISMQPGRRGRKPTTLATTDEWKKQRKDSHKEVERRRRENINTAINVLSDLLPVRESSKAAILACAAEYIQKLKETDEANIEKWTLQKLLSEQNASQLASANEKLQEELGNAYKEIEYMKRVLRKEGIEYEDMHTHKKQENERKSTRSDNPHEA
Technique: competition protein-binding microarray
Molecule type: double-stranded DNA, one strand shown
Matrix: in vitro
Tested at: 2 µM
Setting: whole 60-bp probe, lowest competitor level
With: Pho4 competitor, 0.05 µM
Direction: higher = stronger binding
Constant ends, left off below: … GTCTTGATTCGCTTGACGCTGCTG
Strand	fluorescence intensity [a.u.]
AAATTACTAAGTTGACGGGTGGGTGACGCCGTATGA	75.2
CTCTTATTAACCAATGTCGTGCGGATCAAAATGCTA	93.5
GGGCCCGCCCTGGGCCACGTGTTGCCTGCGGACCCG	719
GTCTTGTCTCATTGAGCGGTGGGTGTCCCCACTTCA	75.6
TCATCCCATCCTCGGCACGCATTACCAGCACTCAAA	66.5
GTTACAAGACTTCACCACGTTAATAGCGATCTGGCT	66.4
CTTCCTTCCAGAGCCCGCGTGCTAATGCAGAGTGGT	82.3
TACCCTTGCACCTTCCACAACCATATTTTTGGTCTA	50.7
CTAACGAAGGTTTGCCGGGTGGGTGACAAGCCAAGT	54
CTTTCCCGATCTTTTCACGTGACATTAGCACATTTG	5440
TGGTGGAGTTTTACCCACGTGATGGAAGACTCCTGG	3550
CCATGTTACATAATCTTCGTGCCAGTCTAATTCGTA	74
CATTAGTTTTTTACCTGTGTGACGGTTATACATAAC	107
TGATGACGCCACCATCACGTTGCGACAGCGTCTGCT	161
ACAAATTTAGTATCTCACGTGTATACAATTGCTCTG	2010
GGCATTATCCTTCCGCACGTTTCTTGGATAATTCAT	135
GTCAGTATCTTCCATCACATGACAATCTTGTGCATC	1210
CGGGGTTAAGTTTGGACCGTGGGTGGCTTGCAGCAG	64
CAAGCCCCAAGTACCCACGTTGTTGAGGTGTTTTTT	67
AATTATCAGGGACCGGTCGTGCCGATAATGTCCTGC	62.4
CTAACGAAGGTTTGCCGCGTGGGTGACAAGCCAAGT	63.7
TGGCGGTTAGTCCTCTGCGTGATGGATCGTTGTAAT	75.5
TCTGTAACTTAATCACACGTGCAAAGTCTCTTTTAC	1330
GCAAAAACACCGCAACTCGTGGTGACGGGGTAAGAA	78.2
AAGAATGTCATATTCTTCGTGACGGATGGGATGGGA	62.6

Block 3
Target: CCNB3, cyclin fold, Cln2 fusion (human)
Technique: yeast growth competition, sequencing
Matrix: yeast
Setting: weak parent motif
Reference: not given
Direction: higher = stronger binding
Starting sequence: WEE1 docking peptide (human); HKTFRKLRLFDTP; partner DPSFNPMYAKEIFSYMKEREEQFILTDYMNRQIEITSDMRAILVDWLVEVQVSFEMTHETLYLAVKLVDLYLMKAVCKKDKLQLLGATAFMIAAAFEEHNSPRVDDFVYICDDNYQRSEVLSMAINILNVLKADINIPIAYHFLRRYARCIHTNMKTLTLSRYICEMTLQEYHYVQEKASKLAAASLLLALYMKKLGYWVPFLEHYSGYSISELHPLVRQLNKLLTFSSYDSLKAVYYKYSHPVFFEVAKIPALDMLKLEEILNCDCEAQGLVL
Change	normalised enrichment score
P13S	0.0754
K2A	0.244
L7M	-0.588
R5L	-0.331
F4S	-0.0982
K6S	0.0617
H1S	0.465
K2C	-0.0161
T3Q	-0.105
K2G	0.195
K6W	0.495
L9W	0.197
P13F	-0.0927
T3M	0.169
L7Y	0.392
P13T	0.573
P13K	0.0214
R5D	0.562
P13W	-0.0465
F10Y	-0.398

Block 4
Target: RNA binding protein fox-1 homolog 2, RRM domain, GST-SBP tag (RBFOX2, Homo sapiens, UniProt O43251-10, residues 100-194)
Technique: RNA Bind-n-Seq
Molecule type: RNA
Matrix: in vitro
Tested at: 365 nM
Setting: natural RNA segment, single round, ends assumed
Reference: no-protein control
Direction: higher = stronger binding
Constant ends, left off below: GGGAGUUCUACAGUCCGACGAUC … UGGAAUUCUCGGGUGCCAA
Target sequence (chain): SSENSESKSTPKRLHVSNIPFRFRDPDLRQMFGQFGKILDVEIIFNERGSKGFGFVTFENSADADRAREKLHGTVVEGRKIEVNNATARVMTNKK
Strand	RBNS enrichment (R)
GGUUGGGAACAUAGCCAUGAGUGCCCCUCGUGGGUGGGGCGCCAGUCUGUCAUUGACCUCAUUGUGUCAGCACCUUCCCCUCAAGGAGGCUGACCCUGCCCUGCCAGCUG	0.423
UGCAGCGAGACGGCAGCACAGACCCCUGGAGGUCCAGGGGGGCCCGAGGCAGGGUCCAAACCUGAGUGAGGGCCAGCCAUGCCUCCCCUCCCAUUCCUCUGGUCCCUGCC	0.638
GCCUGAACAUCGCCCUGGUGAAUGGGGUCAGUGGUGAGCUCCUAGAAGCCAGAGCCUUUGACAUGUGGGCUGGAGGUGAGUGGCCCACCACAGCAACCUACUGUAUAUUU	1.32
GCCAGGGCGUGGCCUCCCCAAGGCUGUGGUGCCCCUUCUGGCUCCCCCAGGUCAGGUCCGCGCCCUUUAAAUUGGCCGCUUGGCUUUUGCCUUUGGUCCUCUUGGACAGA	0.31
AAACUUGGUUGACAAAAUUUUGGAUCAACUGAAAAAAGCAUGACUUUUGAAAUCUCUGAAUGCCUUGGUUCUCAGUAUUAUCAUUCUUUAUUGAAUUUAUUUCUUAUUAA	2.47
AAGCAGCUACGACCCAUUGCCCUCCUACCUGCUUCGCUACUGGUCCAUGGUACAGACUGUUCCAGAUCACCAAGAAAGGUACUUUCAGGAUCCCAGUGCCUAGCACUGGG	0.365
UUAAUGACAGAAGGAAGCCCCGCCCCUCACUGCUGUCAAAGCCUUCAGUAAACAUGUGAAUCCUGAAACCCUAACAUUCUGAUUGCAAUCUCUACUCAUCCCUCCUUCCC	1.14
AGUGGGGCCCGCACUCAGAACUGUGAGGAGGGUGGAGAGUGGUCCUGACCCUCAGUUCCCAGAGGACCUAGAGGCUCGAGGGUGGGGCCUGCCUUUCUUGAUGUCCAAUG	0.721
UUCCUCAUUAACUGGGAGUCCCACUUACCUACUGUCAGCUGAUCACAGCAGCAAUGGCUAAUUCAGUCCGAGUCAACAACAGCCUCCUACUUCACAGGUUCUCUUCUCCC	0.497
UAUAAAUCUGUCUGUUUAGAAUCUGUGCUGUGUAAGGGCAUUCGUACUCAUGCUGUUACUGUACUUAUGCACCAUUCAGACUUGUUAGAGUAGAUGUGGGUUUAUGACUG	0.385
GAUUAGAGCUGCCUUUCCCAGGGAAAAAGUGUCGUCUCCCCGACCCUCCCGUGGGCCCUGUGGUGUGAUGCUGUGUCUGUAUAUUCUAUACAAAGGUACUUGUCCUUUCC	0.344
GCAAGCGUGUGGAUUUCCAUUGCAGAGCCCCUGUUUCAGGAUGCAAGAGUUUUCCAGCCCAAGGCAAAAUGGAAGAUUGCUGACCCAACCACAAACCCAUCCCUGCGGAG	0.39

Block 5
Target: Histone acetyltransferase KAT6A, winged helix 2, GST fusion (KAT6A, Homo sapiens, UniProt Q92794, residues 85-181)
Technique: protein binding microarray
Molecule type: double-stranded DNA, one strand shown
Matrix: in vitro
Tested at: not given
Setting: 8-mer, flanks averaged, mean of 2 arrays, mostly near background
Reference: not given
Direction: higher = stronger binding
Target sequence (chain): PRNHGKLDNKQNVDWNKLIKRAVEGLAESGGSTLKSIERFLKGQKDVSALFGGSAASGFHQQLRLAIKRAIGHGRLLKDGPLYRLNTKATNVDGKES
Strand	E-score
AAGGTCTA	-0.0986
ACATTTGA	-0.0586
TAACGTAA	-0.175
GCATGGAA	0.0153
CAAGCATG	0.0499
CGTATCCA	0.0197
GAGAGTAC	-0.00817
AGTATTTC	0.107
CCGAGCCG	0.158
ATTAACGA	-0.00835
CATCTGGA	-0.0489
TCTGGGAA	0.0268
CCTGCACA	-0.187
ACTGGCTC	-0.0343
AAATTCGA	0.047
CTTGTTGC	0.0218
ACCTCTAA	0.00908

A few entries again (block 2):
Strand	fluorescence intensity [a.u.]
CCATGTTACATAATCTTCGTGCCAGTCTAATTCGTA	74
TGGCGGTTAGTCCTCTGCGTGATGGATCGTTGTAAT	75.5
AAATTACTAAGTTGACGGGTGGGTGACGCCGTATGA	75.2
TCATCCCATCCTCGGCACGCATTACCAGCACTCAAA	66.5
GTTACAAGACTTCACCACGTTAATAGCGATCTGGCT	66.4
CTTCCTTCCAGAGCCCGCGTGCTAATGCAGAGTGGT	82.3
